Results of several laboratories.
Every numbered part comes from another study and shows a few of its results, in no order.

Sample 1
Target: RNA binding protein fox-1 homolog 2, RRM domain, GST-SBP tag (RBFOX2, Homo sapiens, UniProt O43251-10, residues 100-194)
Method: RNA Bind-n-Seq
Form: RNA
Matrix: in vitro
Concentration: 365 nM
Setting: natural RNA segment, single round, ends assumed
Relative to: no-protein control
Reading: higher = stronger binding
Measurement: RBNS enrichment (R)
All sequences stand within: GGGAGUUCUACAGUCCGACGAUC … UGGAAUUCUCGGGUGCCAA
Residues (chain): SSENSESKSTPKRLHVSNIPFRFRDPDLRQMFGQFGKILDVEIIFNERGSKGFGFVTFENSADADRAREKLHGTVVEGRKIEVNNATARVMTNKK
Sequence = GUGAUAUUUCAUUUGCUUAACUGUAAACCAUUUCAAGGUACUAACUUUUAAAUCUGUAUGUAAAAUCUUUUCAAAAUACAUUUUUAAGCUAAUACUCUUAACAUAGAUUA; result = 0.509
Sequence = ACCACUUUUAUUCAAAAGUACUUUUAACAUACCAAUACAUAGUCUGUCUGAUGGGAGUAUAAAUUGGACAGUAAGGUUUUGUCUUAAUAAAAUGAAAUUUGUUUCUCAUG; result = 0.566
Sequence = AUUACCUUACUUAAGGAUAAUAGGACAAGACAAAUUACAGAUUGUCUCAGAGAAAACAAAUGAGUUACUCUCUCGGACAAGCUGUAGGUCCUACCUAAAUGUCCAGCAGG; result = 0.283
Sequence = AAGGAAUCAAAUUUAUUGAAUUUUAUUAUUGAAAGUUGAAAUAAGAUGUAUGAACAAAAAAAAAUCAAUAAAAGAAUAUACUCUUUUCAUGGACUGUAGUAGUAUGUGAA; result = 6.52
Sequence = UUAACUGUAUUGGUGUAAGAGUUUUGUCAUUAAGUGUUUAAGUGUUAUUCUGAAUUUUCUACCUUAGUUAUCAUUAAUGUAGUUCCUCAUUGAACAUGUGAUAAUCUAAU; result = 0.823
Sequence = ACCCCAGACCCCCACUCUUCACUGUUGGUGUGAUAGACCUAAGAACCACAUUAGCACCCUGCCAGCCUACCAGCCUCUCUGUGCACAGCUUCUAAUGUUAUGAUCUAGCU; result = 0.878
Sequence = AGCAGAGCAGUGCGUUGUUGGGAGAUGGAAAGUCUAUGCGUGGGUACCCUGUCUUCUUGCCUGUGGCCCCCCUCCUUUCUGAAAGUUAGUUCUCUCCGCAUUCUUUAGGA; result = 1.51
Sequence = UUGACCUUUUCAAUUUUUUUAAAGUUAUUUUUGAGACAGAGCCUCAUGUAGCCCAGGCUGGCCUUGAGCUCUGUAUGUAUCUGAGGCUAGUCCUGAAUUCCUAACUCUCC; result = 0.674

Sample 2
Target: Prothrombin, mature alpha-thrombin (F2, Homo sapiens, UniProt P00734)
Method: aptamer microarray, sandwich
Form: DNA with 2'F-ANA
Matrix: in vitro
Concentration: 200 nM
Setting: whole 15-mer aptamer, many near background
Added: Cy3 exosite-II aptamer, 400 nM
Reading: higher = stronger binding
Measurement: mean fluorescence intensity
Sequence: GGTTGGTGTGGTTGG
Modification = 2'F-ANA at 1 2 5 7 8 10 13; result = 47.3 a.u.
Modification = 2'F-ANA at 1 2 3 6 7 9 10 11 14; result = 53.2 a.u.
Modification = 2'F-ANA at 3 4 7 9 10 13; result = 265 a.u.
Modification = 2'F-ANA at 1 2 3 4 5 9 14; result = 45.4 a.u.
Modification = 2'F-ANA at 5 7 9 10 14; result = 47.8 a.u.
Modification = 2'F-ANA at 1 3 5 7 8 9 10 13 14 15; result = 46 a.u.
Modification = 2'F-ANA at 2 4 6 9 11 12 14 15; result = 89 a.u.
Modification = 2'F-ANA at 1 2 3 4 5 7 8 9 11 12 13 14 15; result = 51.4 a.u.
Modification = 2'F-ANA at 2 3 4 6 7 8 10 14 15; result = 150 a.u.
Modification = 2'F-ANA at 1 2 3 5 8 9 10 11 12 13 14; result = 51 a.u.
Modification = 2'F-ANA at 1 2 5 11 12 13 15; result = 71.7 a.u.
Modification = 2'F-ANA at 1 2 3 6 7 8 9 12 13 14; result = 85.1 a.u.
Modification = 2'F-ANA at 1 5 6 7 8 9 10 11 15; result = 50.7 a.u.
Modification = 2'F-ANA at 2 3 4 5 6 7 8 15; result = 110 a.u.
Modification = 2'F-ANA at 1 2 3 7 12 14 15; result = 119 a.u.
Modification = 2'F-ANA at 1 2 11 12; result = 363 a.u.
Modification = 2'F-ANA at 5 6 9 10 11 13 15; result = 45.9 a.u.
Modification = 2'F-ANA at 1 3 4 5 6 8 9 10 11 12 13 14 15; result = 51 a.u.

Sample 3
Target: Sal-like protein 4, full length isoform A (SALL4, Homo sapiens, UniProt Q9UJQ4, residues 1-1053)
UniProt Q9UJQ4, sequence (whole entry, looked up): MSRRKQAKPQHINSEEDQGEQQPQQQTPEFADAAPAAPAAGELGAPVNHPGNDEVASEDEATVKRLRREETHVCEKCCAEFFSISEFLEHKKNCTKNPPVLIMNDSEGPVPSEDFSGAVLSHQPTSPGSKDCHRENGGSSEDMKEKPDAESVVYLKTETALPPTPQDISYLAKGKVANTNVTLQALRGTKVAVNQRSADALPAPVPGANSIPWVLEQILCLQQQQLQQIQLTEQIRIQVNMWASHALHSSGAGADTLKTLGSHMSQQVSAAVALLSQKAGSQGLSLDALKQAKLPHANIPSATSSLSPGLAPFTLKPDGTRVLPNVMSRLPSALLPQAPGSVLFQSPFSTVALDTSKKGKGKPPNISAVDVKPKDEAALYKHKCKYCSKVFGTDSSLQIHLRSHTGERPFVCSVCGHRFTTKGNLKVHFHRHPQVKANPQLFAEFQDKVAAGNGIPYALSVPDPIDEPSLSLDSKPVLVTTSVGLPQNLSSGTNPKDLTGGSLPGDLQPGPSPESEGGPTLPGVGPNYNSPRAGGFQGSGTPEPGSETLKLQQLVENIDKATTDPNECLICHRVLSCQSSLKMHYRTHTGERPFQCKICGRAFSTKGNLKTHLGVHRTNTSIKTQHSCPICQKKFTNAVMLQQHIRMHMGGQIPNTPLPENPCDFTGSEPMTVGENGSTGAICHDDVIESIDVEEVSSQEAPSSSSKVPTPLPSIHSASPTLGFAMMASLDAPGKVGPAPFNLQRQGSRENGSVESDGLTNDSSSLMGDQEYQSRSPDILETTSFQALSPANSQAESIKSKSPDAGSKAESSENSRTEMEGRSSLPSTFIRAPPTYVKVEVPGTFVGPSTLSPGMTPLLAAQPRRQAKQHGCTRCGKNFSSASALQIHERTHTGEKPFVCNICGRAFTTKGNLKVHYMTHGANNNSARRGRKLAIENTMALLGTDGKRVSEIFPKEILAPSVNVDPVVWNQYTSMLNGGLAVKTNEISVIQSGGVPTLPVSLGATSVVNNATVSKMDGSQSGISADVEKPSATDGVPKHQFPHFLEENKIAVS
Method: universal PBM
Form: double-stranded DNA, one strand shown
Matrix: in vitro
Concentration: 600 nM
Setting: 8-mer, flanks averaged, mean of replicates
Reading: higher = stronger binding
Measurement: E-score
Sequence = CGCCAGGC; result = -0.382
Sequence = GCTTGTTA; result = 0.0768
Sequence = ATCCTTGA; result = 0.102
Sequence = GAGCGGCA; result = -0.238
Sequence = TGCAGAAA; result = 0.202
Sequence = GTGAAAGA; result = 0.172
Sequence = ATGTCAAG; result = 0.0914
Sequence = AATCCTCT; result = -0.0335
Sequence = AGATTCAG; result = 0.036
Sequence = ATTATCCA; result = 0.206
Sequence = CTCCTCAC; result = -0.137
Sequence = CCCACGAG; result = -0.392
Sequence = CTCTGTCA; result = 0.038
Sequence = AACCATCA; result = 0.186
Sequence = AATGGGGG; result = -0.226
Sequence = CGCCATAG; result = -0.0619
Sequence = GCTTGACC; result = -0.263
Sequence = ACTCCACC; result = -0.0466
Sequence = CGTGTTTA; result = 0.0982
Sequence = CTCGCAAG; result = -0.0608
Sequence = GTATAAAA; result = 0.331
Sequence = TACGTCGA; result = -0.0347
Sequence = CCCTGTTC; result = -0.305
Sequence = AGGAAATG; result = 0.161

Sample 4
Target: RING finger protein unkempt homolog, zinc fingers 1-6, SBP tag (UNK, Homo sapiens, UniProt Q9C0B0, residues 30-357)
UniProt Q9C0B0, sequence (30-357, looked up): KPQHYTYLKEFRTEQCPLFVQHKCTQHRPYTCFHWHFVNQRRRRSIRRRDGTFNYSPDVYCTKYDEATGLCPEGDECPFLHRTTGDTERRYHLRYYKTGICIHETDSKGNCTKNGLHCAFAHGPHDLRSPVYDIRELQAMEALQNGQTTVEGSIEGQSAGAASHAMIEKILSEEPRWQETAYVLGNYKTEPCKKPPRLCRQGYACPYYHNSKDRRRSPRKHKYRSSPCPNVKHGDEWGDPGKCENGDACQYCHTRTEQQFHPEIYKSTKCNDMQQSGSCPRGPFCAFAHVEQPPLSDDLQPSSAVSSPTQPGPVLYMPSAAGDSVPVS
Method: RNA Bind-n-Seq
Form: RNA
Matrix: in vitro
Concentration: 100 nM
Setting: RNA with constant flanks, vertebrate orthologous sites, ends assumed
Relative to: input RNA pool
Reading: higher = stronger binding
Measurement: bound/input enrichment
All sequences stand within: GGGAGUUCUACAGUCCGACGAUC … CAACAGAGGAUUGAGCAUCA
Sequence = ACGUGGACGGCAGCGAGGAAAAACCAGCCCCCCCUUCACUAGGAGAUACAAACGUUGACAUAGAAGAGCAAUUAAAUUCAAUAAAUUUAUCUUUUCAGGAUGAUCCAGACUCCAGUACCA; result = 0.848 ratio
Sequence = CUCUAUGGGCCUCGCAGAGUUGAAAUAAUGGAAGAGGAAAGUGAAUAGUAAUCUUCAUUUUAGUAUUUAUGCUUAGGUGUGAAAUAAAUGUUAUUUGUUGAUCACUUCUAUAAUCCAGAG; result = 0.4 ratio
Sequence = AAAUUCCCCCAUUGUCACUGAGAACCACCAAAUCUGACUUUUACAUUUGGUCUCAGAAUUUAGGUUCCUGCCCUGUUGGUUUUUUUUUUUUUUUUUUAAAAAGUUUUCAAAAGUUCUUAA; result = 1.18 ratio
Sequence = CUGGGACCAGCUCUCCUAAUAGGAAUAGUAGUAAGAAAAGUAAACAAAAUGAUAUUUGUAUUGAUAAAACAGAAAUUAAAUCAUGUAAAGUAAAUGCUACCAAUGUUCCAGGCCCUAAAG; result = 0.397 ratio
Sequence = UUGAGAACAGCUCUCCAAAUAGGAAUAGUAGUAAAAAAAAUAAGCAAAAUGAUAUUUGUAUAGAAAAAACAGAAGUUAAAUCAUGUAAAGUAAAUGCUGCCAACCUUCCAGGUCCUAAAG; result = 1.11 ratio
Sequence = UGUGUUGGGCAGAGUGCUCUGUACCAGUGCUCGUCAUCCCUUCUUCAUACCAACUGUCUCUAGUUAAUAGGAAUUUAAUAUUUUGAAAAGUUUUACAUUGCUGUAUAUUCAAAGAUUUGU; result = 0.363 ratio
Sequence = UAAUUCCAUGGUUGAAGGGUCUGAAUUGAAAAAAGUUAGGUCCAAUUCUAGAAUUUACCACCGAUACUUUCUUUUGGAUGCAGAUAUGCAGUCUUUACGCUGGGAGCCUUCUAAAAAAGA; result = 0.413 ratio
Sequence = UCCCAGCACUUUGAUAAAAAGCGUGGACUGGUUGCUUGUAUUUUCCUUAUUCUUUUUAAUUAGUUUUAUUAUGUACGCCACCAUCCGAACUGAGAGCAUCCGGUGGCUAAUUCCAGGACA; result = 3.62 ratio

Repeated from above (sample 1):
Sequence = ACCACUUUUAUUCAAAAGUACUUUUAACAUACCAAUACAUAGUCUGUCUGAUGGGAGUAUAAAUUGGACAGUAAGGUUUUGUCUUAAUAAAAUGAAAUUUGUUUCUCAUG; result = 0.566
Sequence = AUUACCUUACUUAAGGAUAAUAGGACAAGACAAAUUACAGAUUGUCUCAGAGAAAACAAAUGAGUUACUCUCUCGGACAAGCUGUAGGUCCUACCUAAAUGUCCAGCAGG; result = 0.283
Sequence = AAGGAAUCAAAUUUAUUGAAUUUUAUUAUUGAAAGUUGAAAUAAGAUGUAUGAACAAAAAAAAAUCAAUAAAAGAAUAUACUCUUUUCAUGGACUGUAGUAGUAUGUGAA; result = 6.52
Sequence = UUAACUGUAUUGGUGUAAGAGUUUUGUCAUUAAGUGUUUAAGUGUUAUUCUGAAUUUUCUACCUUAGUUAUCAUUAAUGUAGUUCCUCAUUGAACAUGUGAUAAUCUAAU; result = 0.823
Sequence = ACCCCAGACCCCCACUCUUCACUGUUGGUGUGAUAGACCUAAGAACCACAUUAGCACCCUGCCAGCCUACCAGCCUCUCUGUGCACAGCUUCUAAUGUUAUGAUCUAGCU; result = 0.878
Sequence = AGCAGAGCAGUGCGUUGUUGGGAGAUGGAAAGUCUAUGCGUGGGUACCCUGUCUUCUUGCCUGUGGCCCCCCUCCUUUCUGAAAGUUAGUUCUCUCCGCAUUCUUUAGGA; result = 1.51
